# Assay results collected from several papers.
# Each numbered part is a random draw from the data of one study; scales do not carry over between parts. ± gives the spread as reported.
# Chain of UniProt P25929 (whole entry, looked up): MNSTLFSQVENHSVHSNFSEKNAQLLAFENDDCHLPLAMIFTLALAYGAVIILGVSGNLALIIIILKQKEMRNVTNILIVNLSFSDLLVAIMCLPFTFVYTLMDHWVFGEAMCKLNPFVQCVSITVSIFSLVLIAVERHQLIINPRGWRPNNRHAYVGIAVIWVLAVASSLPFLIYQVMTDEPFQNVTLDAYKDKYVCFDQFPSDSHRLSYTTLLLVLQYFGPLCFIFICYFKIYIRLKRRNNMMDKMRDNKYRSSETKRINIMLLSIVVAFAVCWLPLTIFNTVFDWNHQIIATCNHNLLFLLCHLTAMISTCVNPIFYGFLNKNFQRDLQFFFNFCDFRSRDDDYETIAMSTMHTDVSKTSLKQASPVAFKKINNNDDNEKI
# Chain of UniProt O42275 (whole entry, looked up): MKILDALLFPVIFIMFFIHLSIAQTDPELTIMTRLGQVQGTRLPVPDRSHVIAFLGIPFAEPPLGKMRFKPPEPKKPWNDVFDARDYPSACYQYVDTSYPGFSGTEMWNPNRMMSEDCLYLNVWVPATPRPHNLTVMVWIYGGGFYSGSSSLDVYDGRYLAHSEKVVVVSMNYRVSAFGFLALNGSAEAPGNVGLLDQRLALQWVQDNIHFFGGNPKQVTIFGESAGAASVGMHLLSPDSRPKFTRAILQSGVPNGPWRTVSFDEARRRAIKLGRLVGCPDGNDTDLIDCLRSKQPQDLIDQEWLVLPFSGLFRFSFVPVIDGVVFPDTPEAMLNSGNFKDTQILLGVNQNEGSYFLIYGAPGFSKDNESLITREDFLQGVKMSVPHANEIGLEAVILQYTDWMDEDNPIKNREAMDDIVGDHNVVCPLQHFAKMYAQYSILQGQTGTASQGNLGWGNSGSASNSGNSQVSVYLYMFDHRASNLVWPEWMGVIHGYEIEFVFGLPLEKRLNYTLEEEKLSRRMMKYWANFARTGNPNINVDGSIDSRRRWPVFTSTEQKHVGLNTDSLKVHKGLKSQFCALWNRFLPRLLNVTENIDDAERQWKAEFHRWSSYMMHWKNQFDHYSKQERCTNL
# Chain of UniProt P34913 (whole entry, looked up): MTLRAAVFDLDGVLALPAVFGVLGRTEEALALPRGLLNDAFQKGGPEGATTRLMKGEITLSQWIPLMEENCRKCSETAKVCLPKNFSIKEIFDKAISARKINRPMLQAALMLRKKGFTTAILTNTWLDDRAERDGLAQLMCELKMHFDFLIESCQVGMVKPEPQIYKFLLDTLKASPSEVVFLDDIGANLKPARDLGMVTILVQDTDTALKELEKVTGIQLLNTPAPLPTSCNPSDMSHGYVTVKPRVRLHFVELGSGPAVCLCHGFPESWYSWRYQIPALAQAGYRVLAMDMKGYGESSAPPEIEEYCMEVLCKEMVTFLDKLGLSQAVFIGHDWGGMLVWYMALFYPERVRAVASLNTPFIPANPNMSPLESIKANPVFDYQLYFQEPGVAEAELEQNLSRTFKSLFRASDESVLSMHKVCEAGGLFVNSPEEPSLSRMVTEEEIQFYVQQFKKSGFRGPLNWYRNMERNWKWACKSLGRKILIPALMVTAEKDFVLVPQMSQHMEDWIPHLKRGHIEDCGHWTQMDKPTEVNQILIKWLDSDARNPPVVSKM

# Block 1
# SMILES: Cc1cc(OCc2nnc(SC3CCCC3)n2-c2cccnc2)ccc1-c1ccc(S(C)(=O)=O)cc1
cell line,CC50
OVCAR-4,> 100 µM
NCI-H23,> 100 µM
K562,> 100 µM
HCT-116,> 100 µM
HOP-92,10.4 µM
SF-539,7.5 µM
COLO 205,> 100 µM

# Mixed results
Substance,tested on,assay,system,setting,scale,endpoint,result
N#Cc1ccc(-c2csc(CNC(=O)C34CC(CN(C(=O)COCCF)C3)C4)n2)cc1,,,"Sprague Dawley rats male, plasma","oral, 3 mg/kg",,oral bioavailability,> 100%
C#Cc1cccc(Nc2ncnc3cc(OCCOC)c(OCCOC)cc23)c1,HepG2,MTT,,"0.2 µg/mL, maintenance medium, 2% serum",,viability,75.2%
CC[C@@H]1C(=O)N(C)c2cnc(Nc3ccc(C(=O)NC4CCN(C)CC4)cc3OC)nc2N1C1CCCC1,"BPTF (Homo sapiens, UniProt Q12830)","thermal stabilisation, thermal shift",,10 µM,,ΔTm,-0.15 ± 0.88 °C
cyclic GMP-AMP,"Bromodomain-containing protein 4, BD1 (BRD4, Homo sapiens, UniProt O60885)","binding, thermal shift",,"100 µM, BD1 domain",,ΔTm,-0.48 ± 0.5 °C
Cc1ccc(CN2CCC(C(=O)Nc3ccc(-c4cnc5ccccc5c4)cc3)CC2)cc1,"ache (Electrophorus electricus, UniProt O42275)",,,,,IC50,5090 nM
Cc1ccc(S(=O)(=O)Nc2c(N3CCC(NC(=O)Nc4ccc(F)c(Cl)c4)CC3)c(=O)c2=O)cc1,"EPHX2 (Homo sapiens, UniProt P34913)",,,,,IC50,75.1 ± 8.5 nM
human neuropeptide Y,"NPY1R (Homo sapiens, UniProt P25929)","agonist, ELISA",SK-N-MC cells,"0.1 nM, 1 h, 37 °C, together with: forskolin 10 µM",baseline: forskolin-stimulated saline-treated cells,cAMP level,86.5 ± 14.7%

# Excerpt of the above (mixed results):
Substance,tested on,assay,system,setting,scale,endpoint,result
CC[C@@H]1C(=O)N(C)c2cnc(Nc3ccc(C(=O)NC4CCN(C)CC4)cc3OC)nc2N1C1CCCC1,"BPTF (Homo sapiens, UniProt Q12830)","thermal stabilisation, thermal shift",,10 µM,,ΔTm,-0.15 ± 0.88 °C
